{"data": "Results pooled from the literature", "NMBR": "Neuromedin-B receptor (NMBR, Homo sapiens, UniProt P28336)", "SCTR": "Secretin receptor (SCTR, Homo sapiens, UniProt P47872)", "LPAR2": "Lysophosphatidic acid receptor 2 (LPAR2, Homo sapiens, UniProt Q9HBW0)", "note": "± gives the spread as reported.", "UniProt P47872, sequence (whole entry, looked up)": "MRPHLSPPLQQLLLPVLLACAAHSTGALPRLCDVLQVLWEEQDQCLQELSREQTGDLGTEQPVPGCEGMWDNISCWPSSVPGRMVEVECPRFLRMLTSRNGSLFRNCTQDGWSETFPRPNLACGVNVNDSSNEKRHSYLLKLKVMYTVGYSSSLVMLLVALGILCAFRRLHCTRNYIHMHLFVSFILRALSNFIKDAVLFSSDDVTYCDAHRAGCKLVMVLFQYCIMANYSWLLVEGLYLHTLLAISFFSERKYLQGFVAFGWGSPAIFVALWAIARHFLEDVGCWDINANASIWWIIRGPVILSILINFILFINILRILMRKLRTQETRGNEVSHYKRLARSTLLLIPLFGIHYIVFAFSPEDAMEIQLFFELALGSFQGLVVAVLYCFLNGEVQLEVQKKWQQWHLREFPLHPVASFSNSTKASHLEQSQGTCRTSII", "UniProt P28336, sequence (whole entry, looked up)": "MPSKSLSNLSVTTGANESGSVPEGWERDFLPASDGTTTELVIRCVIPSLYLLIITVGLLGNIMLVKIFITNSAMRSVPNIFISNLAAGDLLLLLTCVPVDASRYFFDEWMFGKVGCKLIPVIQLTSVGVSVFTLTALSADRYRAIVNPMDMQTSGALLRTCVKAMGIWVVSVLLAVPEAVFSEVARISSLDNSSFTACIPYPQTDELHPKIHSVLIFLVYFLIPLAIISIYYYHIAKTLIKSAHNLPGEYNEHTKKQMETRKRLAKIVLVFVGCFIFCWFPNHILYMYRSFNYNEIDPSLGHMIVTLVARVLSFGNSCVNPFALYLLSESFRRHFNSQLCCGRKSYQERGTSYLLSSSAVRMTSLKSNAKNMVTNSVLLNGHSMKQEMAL", "UniProt Q9HBW0, sequence (whole entry, looked up)": "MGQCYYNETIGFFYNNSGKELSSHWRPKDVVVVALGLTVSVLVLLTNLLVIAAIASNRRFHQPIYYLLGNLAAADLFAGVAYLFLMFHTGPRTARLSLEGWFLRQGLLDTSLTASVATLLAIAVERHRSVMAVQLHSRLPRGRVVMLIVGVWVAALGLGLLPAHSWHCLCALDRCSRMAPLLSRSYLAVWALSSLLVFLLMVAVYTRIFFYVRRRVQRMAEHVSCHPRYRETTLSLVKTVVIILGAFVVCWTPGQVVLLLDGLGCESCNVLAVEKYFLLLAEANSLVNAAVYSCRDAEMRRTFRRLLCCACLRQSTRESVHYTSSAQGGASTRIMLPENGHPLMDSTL", "UniProt P28335, sequence (whole entry, looked up)": "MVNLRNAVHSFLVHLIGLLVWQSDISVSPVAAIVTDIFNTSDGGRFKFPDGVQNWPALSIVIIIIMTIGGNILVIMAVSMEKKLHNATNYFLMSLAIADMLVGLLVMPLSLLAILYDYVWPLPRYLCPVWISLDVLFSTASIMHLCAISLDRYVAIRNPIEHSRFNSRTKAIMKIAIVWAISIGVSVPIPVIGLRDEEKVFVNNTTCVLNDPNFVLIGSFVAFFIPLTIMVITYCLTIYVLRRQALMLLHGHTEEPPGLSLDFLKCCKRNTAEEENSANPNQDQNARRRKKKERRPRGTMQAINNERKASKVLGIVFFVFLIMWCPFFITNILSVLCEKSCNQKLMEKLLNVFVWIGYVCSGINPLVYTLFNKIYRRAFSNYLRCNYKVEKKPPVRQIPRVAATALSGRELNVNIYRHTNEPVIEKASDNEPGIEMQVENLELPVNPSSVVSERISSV", "UniProt Q9NYK1, sequence (whole entry, looked up)": "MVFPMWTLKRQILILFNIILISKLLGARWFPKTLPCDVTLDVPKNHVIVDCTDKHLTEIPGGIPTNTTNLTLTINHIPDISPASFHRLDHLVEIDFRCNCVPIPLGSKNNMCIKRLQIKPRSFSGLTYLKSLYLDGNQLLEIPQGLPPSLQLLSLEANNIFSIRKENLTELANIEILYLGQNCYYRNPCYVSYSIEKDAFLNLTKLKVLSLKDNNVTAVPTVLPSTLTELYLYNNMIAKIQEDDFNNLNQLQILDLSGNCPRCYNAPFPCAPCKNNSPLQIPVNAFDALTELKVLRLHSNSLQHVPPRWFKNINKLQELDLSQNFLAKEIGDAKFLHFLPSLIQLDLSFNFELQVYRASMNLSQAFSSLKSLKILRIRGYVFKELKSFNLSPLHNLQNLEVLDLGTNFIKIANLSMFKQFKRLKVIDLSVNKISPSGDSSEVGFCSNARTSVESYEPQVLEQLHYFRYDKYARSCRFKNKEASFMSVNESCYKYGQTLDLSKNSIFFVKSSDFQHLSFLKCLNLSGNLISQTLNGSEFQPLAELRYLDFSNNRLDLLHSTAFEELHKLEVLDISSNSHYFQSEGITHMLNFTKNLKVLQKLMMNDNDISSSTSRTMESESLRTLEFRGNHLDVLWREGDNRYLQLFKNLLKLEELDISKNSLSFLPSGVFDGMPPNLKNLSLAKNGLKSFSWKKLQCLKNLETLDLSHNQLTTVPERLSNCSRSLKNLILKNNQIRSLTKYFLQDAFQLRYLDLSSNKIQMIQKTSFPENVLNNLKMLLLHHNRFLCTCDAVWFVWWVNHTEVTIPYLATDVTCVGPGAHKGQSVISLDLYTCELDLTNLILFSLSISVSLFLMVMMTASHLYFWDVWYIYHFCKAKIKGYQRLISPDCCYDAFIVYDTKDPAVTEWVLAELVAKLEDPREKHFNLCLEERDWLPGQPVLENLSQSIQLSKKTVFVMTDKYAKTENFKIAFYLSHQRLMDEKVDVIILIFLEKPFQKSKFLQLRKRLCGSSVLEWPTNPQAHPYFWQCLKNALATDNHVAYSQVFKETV", "UniProt Q61143, sequence (whole entry, unmodified, looked up)": "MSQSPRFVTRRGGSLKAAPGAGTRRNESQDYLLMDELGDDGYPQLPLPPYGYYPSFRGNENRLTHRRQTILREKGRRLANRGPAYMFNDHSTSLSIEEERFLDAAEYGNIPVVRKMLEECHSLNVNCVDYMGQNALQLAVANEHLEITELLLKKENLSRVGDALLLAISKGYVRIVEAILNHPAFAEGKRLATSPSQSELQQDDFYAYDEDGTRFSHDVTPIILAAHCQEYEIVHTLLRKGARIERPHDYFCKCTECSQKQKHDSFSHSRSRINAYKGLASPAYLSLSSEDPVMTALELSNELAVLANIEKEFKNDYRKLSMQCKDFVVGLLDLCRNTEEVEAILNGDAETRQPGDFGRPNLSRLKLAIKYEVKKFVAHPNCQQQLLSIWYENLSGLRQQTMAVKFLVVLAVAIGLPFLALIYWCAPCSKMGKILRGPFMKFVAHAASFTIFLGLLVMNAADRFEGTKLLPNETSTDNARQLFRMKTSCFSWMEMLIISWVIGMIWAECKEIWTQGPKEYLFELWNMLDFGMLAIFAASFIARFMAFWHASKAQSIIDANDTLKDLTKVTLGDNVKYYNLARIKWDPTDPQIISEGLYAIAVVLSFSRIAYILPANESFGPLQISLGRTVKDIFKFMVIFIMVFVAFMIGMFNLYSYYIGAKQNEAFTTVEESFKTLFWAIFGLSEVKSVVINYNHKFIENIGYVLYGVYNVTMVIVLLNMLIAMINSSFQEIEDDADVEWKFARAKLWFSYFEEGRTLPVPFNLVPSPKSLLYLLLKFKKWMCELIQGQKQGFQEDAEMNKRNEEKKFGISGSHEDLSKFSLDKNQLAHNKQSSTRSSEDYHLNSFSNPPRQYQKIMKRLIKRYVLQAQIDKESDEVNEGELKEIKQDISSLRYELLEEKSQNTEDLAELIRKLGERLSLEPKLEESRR", "UniProt Q9NR97, sequence (whole entry, looked up)": "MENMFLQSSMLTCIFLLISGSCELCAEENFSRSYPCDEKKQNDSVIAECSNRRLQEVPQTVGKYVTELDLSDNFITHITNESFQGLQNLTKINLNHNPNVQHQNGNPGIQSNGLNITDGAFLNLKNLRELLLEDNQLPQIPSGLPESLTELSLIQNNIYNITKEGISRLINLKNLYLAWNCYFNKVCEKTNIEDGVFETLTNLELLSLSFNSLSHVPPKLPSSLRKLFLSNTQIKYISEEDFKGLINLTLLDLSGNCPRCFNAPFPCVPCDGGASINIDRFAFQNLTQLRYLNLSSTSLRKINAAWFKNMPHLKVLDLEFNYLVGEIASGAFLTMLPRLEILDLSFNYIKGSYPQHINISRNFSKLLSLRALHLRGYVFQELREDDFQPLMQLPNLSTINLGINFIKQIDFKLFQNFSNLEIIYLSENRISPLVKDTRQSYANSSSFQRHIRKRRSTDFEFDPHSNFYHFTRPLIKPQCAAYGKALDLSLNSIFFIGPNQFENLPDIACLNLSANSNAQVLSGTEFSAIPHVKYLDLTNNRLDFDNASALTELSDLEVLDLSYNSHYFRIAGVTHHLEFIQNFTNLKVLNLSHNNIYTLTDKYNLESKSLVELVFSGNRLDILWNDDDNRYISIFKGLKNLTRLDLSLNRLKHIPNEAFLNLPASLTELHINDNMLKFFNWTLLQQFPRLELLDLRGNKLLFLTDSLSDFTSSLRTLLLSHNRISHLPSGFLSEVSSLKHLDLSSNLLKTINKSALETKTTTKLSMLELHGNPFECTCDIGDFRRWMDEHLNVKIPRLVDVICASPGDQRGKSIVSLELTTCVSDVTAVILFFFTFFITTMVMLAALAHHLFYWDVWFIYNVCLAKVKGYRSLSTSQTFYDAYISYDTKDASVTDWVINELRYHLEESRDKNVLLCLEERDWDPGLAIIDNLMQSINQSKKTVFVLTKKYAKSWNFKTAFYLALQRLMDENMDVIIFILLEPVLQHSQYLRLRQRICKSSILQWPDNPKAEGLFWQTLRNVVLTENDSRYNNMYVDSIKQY"}
{"Structure (SMILES)": "CCCC[C@H](NC(=O)[C@H](Cc1ccccc1)NC(=O)[C@H](Cc1c[nH]cn1)NC(=O)CCNC(=O)[C@@H](NC(=O)[C@H](C)NC(=O)[C@H](Cc1c[nH]c2ccccc12)NC(=O)[C@H](CC(N)=O)NC(=O)[C@@H](Cc1ccc(O)cc1)NC(=O)[C@@H](CO)NC(=O)[C@H](CO)NC(=O)[C@H](N)CO)C(C)C)C(N)=O", "target": "NMBR", "test": "inositol phosphate generation, agonist", "system": "BALB/3T3 expressing human NMBR", "conditions": "45 min, 37 °C", "scale": "reference: 1 µM neuromedin B", "EC50": "0.00182 ± 6e-05 µM"}
{"Structure (SMILES)": "COc1ccc(-c2cc(C(F)(F)F)nc(S(=O)(=O)CCCC(=O)Nc3c(F)cc(F)cc3Br)n2)cc1OC", "target": "SCTR", "test": "cAMP, agonist", "EC50": "18 µM"}
{"Structure (SMILES)": "CCCCOc1nc(N)c2[nH]c(=O)n(CC3CNC3)c2n1", "target": "TLR8 (Homo sapiens, UniProt Q9NR97)", "test": "reporter gene, agonist", "EC50": "< 200 µM"}
{"Structure (SMILES)": "CCCCCCCC/C=C\\CCCCCCCC(=O)OC[C@@H]1OCCC[C@@H]1OP(=O)(O)S (stereo partly shown)", "target": "LPAR2", "test": "G protein activation, agonist", "EC50": "1.7 µM"}
{"Structure (SMILES)": "COc1ccc(CNc2nc(-c3ccc(OC)cc3)cc(C(F)(F)F)n2)cc1", "target": "SCTR", "test": "increase of tracer binding, TR-FRET", "system": "HEK293 membranes", "conditions": "with: Fluo-Sec 6 nM", "EC50": "2.7 ± 2.2 µM"}
{"Structure (SMILES)": "CCCCCCCC/C=C\\CCCCCCCC(=O)OC[C@@H]1OCC=C[C@@H]1OP(=O)(O)S (stereo partly shown)", "target": "LPAR2", "test": "G protein activation, agonist", "EC50": "0.74 µM"}
{"Structure (SMILES)": "CCCCOc1nc(N)c2[nH]c(=O)n(CCCN(CCCN3CCOCC3)Cc3cccc(CC(=O)OC)c3)c2n1", "target": "TLR7 (Homo sapiens, UniProt Q9NYK1)", "test": "reporter gene, agonist", "EC50": "0.1 µM"}
{"Structure (SMILES)": "COc1ccccc1-c1cc(C(F)(F)F)nc(S(=O)(=O)CCCC(=O)Nc2ccc(F)cc2F)n1", "target": "SCTR", "test": "increase of tracer binding, TR-FRET", "system": "HEK293 membranes", "conditions": "with: Fluo-Sec 6 nM", "EC50": "11 ± 8.8 µM"}
{"Structure (SMILES)": "CC(C)C[C@H](NC(=O)[C@H](CC(C)C)NC(=O)[C@H](Cc1c[nH]cn1)NC(=O)[C@@H](C)NC(=O)[C@@H](NC(=O)[C@H](C)NC(=O)[C@H](Cc1c[nH]c2ccccc12)NC(=O)[C@H](CCC(N)=O)NC(=O)[C@H](N)Cc1ccccc1)C(C)C)C(N)=O", "target": "NMBR", "test": "inositol phosphate generation, agonist", "system": "BALB/3T3 expressing human NMBR", "conditions": "45 min, 37 °C", "scale": "reference: 1 µM neuromedin B", "EC50": "0.331 ± 0.014 µM"}
{"Structure (SMILES)": "CC1(C)CCOC1CN1CCOCC1Cc1c[nH]c2ccccc12 (stereo not shown)", "target": "HTR2C (Homo sapiens, UniProt P28335)", "EC50": "4.37 µM"}
{"Structure (SMILES)": "CC(=O)[C@@]1(O)CC[C@H]2[C@@H]3CCC4=CC(=O)CC[C@]4(C)[C@H]3CC[C@@]21C", "target": "ADGRG6 (Homo sapiens, UniProt Q86SQ4)", "test": "agonist", "EC50": "2.7 ± 0.5 µM"}
{"Structure (SMILES)": "COc1cccc(-c2cc(C(F)(F)F)nc(NCc3ccc(F)cc3)n2)c1", "target": "SCTR", "test": "increase of tracer binding, TR-FRET", "system": "HEK293 membranes", "conditions": "with: Fluo-Sec 6 nM", "EC50": "5.2 ± 2.9 µM"}
{"Structure (SMILES)": "O=C(c1cc2c(s1)CCCCC2)N1CCC(n2c(=O)[nH]c3ccccc32)CC1", "target": "Trpc6 (Mus musculus, UniProt Q61143, E672D)", "test": "channel activation, agonist, whole-cell patch clamp", "EC50": "1.8 ± 0.33 µM"}
{"note": "For quick reference, copied from above:"}
{"Structure (SMILES)": "CC(=O)[C@@]1(O)CC[C@H]2[C@@H]3CCC4=CC(=O)CC[C@]4(C)[C@H]3CC[C@@]21C", "target": "ADGRG6 (Homo sapiens, UniProt Q86SQ4)", "test": "agonist", "EC50": "2.7 ± 0.5 µM"}
{"Structure (SMILES)": "CCCCOc1nc(N)c2[nH]c(=O)n(CC3CNC3)c2n1", "target": "TLR8 (Homo sapiens, UniProt Q9NR97)", "test": "reporter gene, agonist", "EC50": "< 200 µM"}
